Measurements of several laboratories.
Lines come from different studies, so protocols differ.
Organism: Staphylococcus aureus

CCCCCC(=O)N[C@@H](CCCNC(=N)N)C(=O)N[C@@H](CCCNC(=N)N)C(=O)N[C@@H](CCCNC(=N)N)C(=O)N[C@@H](CCCNC(=N)N)C(=O)N[C@H](C(=O)N[C@@H](CC(C)C)C(=O)N[C@H](C(=O)N[C@@H](CCCNC(=N)N)C(=O)N[C@@H](CCCNC(=N)N)C(=O)N[C@H](C(=O)N[C@@H](CC(C)C)C(=O)N[C@@H](CCCNC(=N)N)C(=O)N[C@@H](CC(C)C)C(=O)N[C@@H](CCCNC(=N)N)C(=O)N[C@@H](CO)C(=O)N[C@@H](CO)C(=O)N[C@@H](C)C(=O)N[C@@H](Cc1ccc(O)cc1)C(N)=O)C(C)C)[C@@H](C)CC)[C@@H](C)CC  MIC (broth microdilution; 24 h, 37 °C): 16 µM
CC[C@H](C)[C@H](NC(=O)[C@H](CC(C)C)NC(=O)[C@H](CCCNC(=N)N)NC(=O)[C@@H](N)CCCNC(=N)N)C(=O)N[C@@H](CCCNC(=N)N)C(=O)N[C@@H](CCCCN)C(=O)N[C@@H](CC(C)C)C(=O)N[C@@H](CCCCN)C(=O)NCC(=O)N[C@@H](CC(C)C)C(=O)N[C@@H](CCCCN)C(=O)N[C@@H](CCCCN)C(=O)N[C@@H](Cc1ccc(O)cc1)C(=O)N[C@@H](CC(C)C)C(=O)N[C@@H](Cc1ccc(O)cc1)C(=O)N[C@@H](Cc1ccccc1)C(=O)N[C@@H](CCCCN)C(=O)N[C@@H](CC(C)C)C(=O)N[C@@H](CCC(N)=O)C(=O)N[C@@H](CC(C)C)C(=O)N[C@@H](CC(C)C)C(=O)N[C@@H](CCCCN)C(=O)N[C@@H](CCCCN)C(N)=O  MIC (KCTC 1621, Mueller-Hinton broth; with: 4.5 mM KCl): 8 µM
CC[C@H](C)[C@H](NC(=O)[C@H](CC(C)C)NC(=O)[C@@H](NC(=O)[C@H](CCCNC(=N)N)NC(=O)[C@H](CCCNC(=N)N)NC(=O)[C@H](CCCNC(=N)N)NC(=O)[C@@H](N)CCCNC(=N)N)[C@@H](C)CC)C(=O)N[C@@H](CCCCN)C(=O)N[C@@H](CCCCN)C(=O)N[C@H](C(=O)N[C@@H](CC(C)C)C(=O)N[C@@H](CCCCN)C(=O)N[C@@H](CC(C)C)C(=O)N[C@@H](CCCCN)C(=O)N[C@@H](CO)C(=O)N[C@@H](CO)C(=O)N[C@@H](C)C(=O)N[C@@H](Cc1ccc(O)cc1)C(N)=O)C(C)C  MIC (broth microdilution; 24 h, 37 °C): 64 µM
CCOc1ccc2ccccc2c1C(=O)N[C@@H]1C(=O)N2[C@@H]1SC(C)(C)[C@@H]2C(=O)O  MIC (CRB, PBP4 deletion): 0.5 µg/mL
CN[C@H](CC(C)C)C(=O)N[C@H]1C(=O)N[C@@H](CC(N)=O)C(=O)N[C@H]2C(=O)N[C@H]3C(=O)N[C@H](C(=O)N[C@H](C(=O)O)c4cc(O)cc(O)c4-c4cc3ccc4O)[C@H](O)c3ccc(c(Cl)c3)Oc3cc2cc(c3O[C@@H]2O[C@H](CO)[C@@H](O)[C@H](O)[C@H]2O[C@H]2C[C@](C)(N)[C@H](O)[C@H](C)O2)Oc2ccc(cc2Cl)[C@H]1O  MIC (LIM-2 VISA): 3 µM
CC[C@H](C)[C@H](NC(=O)CN)C(=O)N[C@@H](C)C(=O)N[C@@H](CC(=O)O)C(=O)N[C@@H](C)C(=O)N[C@H](C(=O)N[C@@H](CCCCN)C(=O)N[C@@H](C)C(=O)N[C@H](C(=O)N[C@@H](C)C(=O)N[C@@H](CCCCN)C(=O)N[C@@H](C)C(=O)N[C@@H](CC(C)C)C(=O)NCC(N)=O)[C@@H](C)CC)[C@@H](C)CC  MIC (ATCC 29213, Mueller-Hinton broth; 12 h, 37 °C): 32 µg/mL
CC(C)C[C@H](NC(=O)CNC(=O)CNC(=O)CNC(=O)CNC(=O)CNC(=O)[C@H](Cc1ccc(O)cc1)NC(=O)[C@H](CC(C)C)NC(=O)[C@@H](NC(=O)CNC(=O)[C@H](Cc1ccc(O)cc1)NC(=O)[C@H](CCCCN)NC(=O)[C@H](CC(N)=O)NC(=O)[C@@H](NC(=O)[C@H](CCCCN)NC(=O)[C@H](Cc1c[nH]c2ccccc12)NC(=O)CN)[C@@H](C)O)[C@@H](C)O)C(=O)N[C@@H](CCCCN)C(=O)N[C@@H](CCCCN)C(=O)N[C@@H](CC(C)C)C(=O)N[C@@H](CC(C)C)C(=O)N[C@@H](CC(C)C)C(=O)N[C@@H](CC(C)C)C(=O)N[C@@H](CC(C)C)C(=O)N[C@@H](CCCCN)C(=O)N[C@@H](CCCCN)C(=O)N[C@@H](CC(C)C)C(=O)NCC(=O)O  MIC (USA300 MRSA, Mueller-Hinton broth; 18 to 24 h, 37 °C): 32 µg/mL
Cn1c(=O)n(-c2ccc(C(C)(C)C#N)cc2)c2c3cc(-c4cnc5ccccc5c4)ccc3ncc21  MIC (NCTC 8325): > 30 µM
Cc1ccc2[nH]c3c(c2c1)CCCC3NCCc1ccc(Br)cc1 (stereo not shown)  MIC (broth microdilution; SA113 ΔtarO): 4 µg/mL
CC[C@H](C)[C@H](NC(=O)[C@H](CC(C)C)NC(=O)[C@H](CCCNC(=N)N)NC(=O)[C@@H](N)CCCNC(=N)N)C(=O)N[C@@H](CCCNC(=N)N)C(=O)N[C@@H](CCCCN)C(=O)N[C@@H](CC(C)C)C(=O)N[C@@H](CCCCN)C(=O)NCC(=O)N1CCC[C@H]1C(=O)N[C@@H](CCCCN)C(=O)N[C@H](C(=O)N[C@@H](Cc1ccc(O)cc1)C(=O)N[C@@H](CC(C)C)C(=O)N[C@@H](Cc1ccc(O)cc1)C(=O)N[C@@H](Cc1ccccc1)C(=O)N[C@@H](CCCCN)C(=O)N[C@@H](CC(C)C)C(=O)N[C@@H](CCC(N)=O)C(=O)N[C@@H](CC(C)C)C(=O)N[C@@H](CC(C)C)C(=O)N[C@@H](CCCCN)C(=O)N[C@@H](CCCCN)C(N)=O)[C@@H](C)CC  MIC (CCARM 3095, methicillin-resistant, Mueller-Hinton broth; 24 h): 16 µM
CC[C@H](C)[C@H](NC(=O)[C@H](CO)NC(=O)CNC(=O)[C@H](CCCCN)NC(=O)[C@@H](NC(=O)[C@H](CC(N)=O)NC(=O)[C@H](Cc1ccccc1)NC(=O)[C@H](CC(N)=O)NC(=O)[C@@H](NC(=O)[C@H](CCCNC(=N)N)NC(=O)[C@@H]1CCCN1C(=O)[C@H](CCCNC(=N)N)NC(=O)[C@@H](NC(=O)[C@H](CCCNC(=N)N)NC(=O)[C@H](CCCNC(=N)N)NC(=O)[C@@H](NC(=O)[C@H](CCCNC(=N)N)NC(=O)[C@H](CO)NC(=O)[C@H](CC(C)C)NC(=O)[C@H](Cc1ccccc1)NC(=O)[C@H](CCCNC(=N)N)NC(=O)CNC(=O)[C@H](Cc1ccccc1)NC(=O)[C@H](CCCNC(=N)N)NC(=O)CNC(=O)[C@H](CCCNC(=N)N)NC(=O)[C@H](CCC(N)=O)NC(=O)[C@@H](NC(=O)[C@@H](N)CC(C)C)C(C)C)[C@@H](C)CC)[C@@H](C)CC)[C@@H](C)CC)[C@@H](C)CC)C(=O)O  MIC (broth microdilution; ATCC 29213, Mueller-Hinton broth; 16 to 20 h, 37 °C): 2.49 µM
CC[C@H](C)[C@H](NC(=O)[C@H](Cc1c[nH]c2ccccc12)NC(=O)[C@@H](NC(=O)[C@H](Cc1ccccc1)NC(=O)[C@@H]1CCCN1C(=O)[C@@H](NC(=O)[C@H](C)N)[C@@H](C)CC)[C@@H](C)CC)C(=O)N[C@@H](Cc1ccccc1)C(=O)N[C@@H](CCCNC(=N)N)C(=O)N[C@@H](CC(C)C)C(=O)N[C@@H](CC(C)C)C(=O)N[C@@H](CCCNC(=N)N)C(=O)N[C@@H](CCCCN)C(=O)NCC(N)=O  MIC (broth microdilution; ATCC 35556; 18 h, 37 °C): 0.47 µM
C/C(=C\C(=O)OCCCCCCCC(=O)Nc1c2sscc-2[nH]c1=O)[C@@H](O)[C@@H]1OC[C@H](C/C=C/[C@@H](C)[C@H](C)O)[C@@H](O)[C@H]1O  MIC (MRSA COL, IleRS V588F mutant): 0.04 µM
CC(C)C[C@@H](NC(=O)CNC(=O)[C@@H](CCCCN)NC(=O)[C@@H](CC(C)C)NC(=O)[C@@H](CCCCN)NC(=O)[C@@H](CCCNC(=N)N)NC(=O)[C@@H](CC(C)C)NC(=O)[C@@H](CC(C)C)NC(=O)[C@@H](CCCNC(=N)N)NC(=O)[C@H](N)CCCNC(=N)N)C(=O)N[C@H](CCCCN)C(=O)N[C@H](CCCCN)C(=O)N[C@H](Cc1ccc(O)cc1)C(=O)N[C@H](CC(C)C)C(=O)N[C@H](Cc1ccc(O)cc1)C(=O)N[C@H](Cc1ccccc1)C(=O)N[C@H](CCCCN)C(=O)N[C@H](CC(C)C)C(=O)N[C@H](CCC(N)=O)C(=O)N[C@H](CC(C)C)C(=O)N[C@H](CC(C)C)C(=O)N[C@H](CCCCN)C(=O)N[C@H](CCCCN)C(N)=O  MIC (KCTC 1621, Mueller-Hinton broth; with: 1 mM MgCl2): 8 µM
CCCCCCC#Cc1cncc(-c2nnc(SCc3cc([N+](=O)[O-])cc([N+](=O)[O-])c3)n2CCOC2OC(CN)C(O)C2O)c1 (stereo not shown)  MIC (broth microdilution; Mu50 MRSA VISA; 18 to 24 h, 37 °C): > 64 µg/mL
CC[C@H](C)[C@H](N)C(=O)N[C@@H](CC(C)C)C(=O)NCC(=O)N[C@@H](CCC(=O)O)C(=O)N[C@H](C(=O)N[C@@H](Cc1c[nH]c2ccccc12)C(=O)N[C@@H](CCCCN)C(=O)NCC(=O)N[C@H](C(=O)N[C@@H](CCCCN)C(=O)N[C@@H](CC(=O)O)C(=O)N[C@H](C(=O)N[C@@H](CC(C)C)C(N)=O)[C@@H](C)CC)[C@@H](C)CC)[C@@H](C)CC  MIC (broth microdilution; ATCC 25923; with: NaCl 150 mM): > 100 µM
CC[C@H](C)[C@H](NC(=O)[C@H](CC(C)C)NC(=O)[C@H](CCCNC(=N)N)NC(=O)[C@@H](N)CCCNC(=N)N)C(=O)N[C@@H](CCCNC(=N)N)C(=O)N[C@H](C(=O)N[C@@H](CC(=O)O)C(=O)N[C@H](C(=O)NCC(=O)N1CCC[C@H]1C(=O)N[C@H](C(=O)N[C@H](C(=O)N[C@@H](Cc1ccc(O)cc1)C(=O)N[C@@H](CC(=O)O)C(=O)N[C@@H](Cc1ccc(O)cc1)C(=O)N[C@@H](Cc1ccccc1)C(=O)N[C@@H](CCCCN)C(=O)N[C@@H](CC(=O)O)C(=O)N[C@@H](CCC(N)=O)C(=O)N[C@@H](CC(C)C)C(=O)N[C@@H](CC(C)C)C(=O)N[C@@H](CCCCN)C(=O)N[C@@H](CCCCN)C(N)=O)[C@@H](C)CC)[C@@H](C)CC)[C@@H](C)O)[C@@H](C)O  MIC (CCARM 3090, methicillin-resistant, Mueller-Hinton broth; 24 h): > 128 µM
COc1ccc2ccc(O)c(/C=N/[C@H]3CCCC[C@H]3/N=C/c3ccc(OCCN4CCCCC4)cc3O)c2c1  MIC (bacterial growth, broth microdilution; vancomycin-intermediate): > 40 µM
CC[C@H](C)[C@H](NC(=O)[C@H](Cc1c[nH]c2ccccc12)NC(=O)[C@@H](NC(=O)[C@@H](NC(=O)[C@@H](NC(=O)[C@H](CCCNC(=N)N)NC(=O)[C@@H](N)CCCNC(=N)N)[C@@H](C)CC)[C@@H](C)O)[C@@H](C)CC)C(=O)N[C@H](C(=O)N[C@H](C(=O)N[C@@H](CCCNC(=N)N)C(=O)N[C@@H](CCCNC(=N)N)C(N)=O)[C@@H](C)CC)[C@@H](C)O  MIC (broth microdilution; 29213, Mueller-Hinton broth; 24 h, 37 °C, lowest concentration, 95% inhibition, with: BSA): 128 µM

A few entries again:
Cn1c(=O)n(-c2ccc(C(C)(C)C#N)cc2)c2c3cc(-c4cnc5ccccc5c4)ccc3ncc21  MIC (NCTC 8325): > 30 µM
CC[C@H](C)[C@H](NC(=O)[C@H](Cc1c[nH]c2ccccc12)NC(=O)[C@@H](NC(=O)[C@H](Cc1ccccc1)NC(=O)[C@@H]1CCCN1C(=O)[C@@H](NC(=O)[C@H](C)N)[C@@H](C)CC)[C@@H](C)CC)C(=O)N[C@@H](Cc1ccccc1)C(=O)N[C@@H](CCCNC(=N)N)C(=O)N[C@@H](CC(C)C)C(=O)N[C@@H](CC(C)C)C(=O)N[C@@H](CCCNC(=N)N)C(=O)N[C@@H](CCCCN)C(=O)NCC(N)=O  MIC (broth microdilution; ATCC 35556; 18 h, 37 °C): 0.47 µM
